# Assay results gathered from unrelated publications.
# Numbered parts are unrelated; each lists some results of a single study. Positions count from the first letter of the parent shown.

# Sample 1 — target: CCND1, cyclin fold, Cln2 fusion (human); method: yeast growth competition, sequencing; medium: yeast; setting: weak parent motif; reference: not given; reading: higher = stronger binding
# Starting sequence: E2F1 docking peptide (human); PPVKRRLDLETDH; partner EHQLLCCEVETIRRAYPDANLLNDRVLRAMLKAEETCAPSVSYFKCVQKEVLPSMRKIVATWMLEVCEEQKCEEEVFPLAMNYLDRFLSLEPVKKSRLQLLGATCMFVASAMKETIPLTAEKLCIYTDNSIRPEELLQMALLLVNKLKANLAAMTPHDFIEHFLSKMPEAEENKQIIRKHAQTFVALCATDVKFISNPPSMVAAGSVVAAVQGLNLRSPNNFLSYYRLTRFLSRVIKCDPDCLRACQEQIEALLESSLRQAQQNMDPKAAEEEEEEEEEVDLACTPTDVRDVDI
Variant,normalised enrichment score
PPVKRRLDLETHH [D12H],0.149
PPVKRRLDLENDH [T11N],0.46
PPVKRRLDLEMDH [T11M],0.304
PPVKRRLDLETDW [H13W],0.615
PPVKRRLDLEIDH [T11I],0.0939
PPVKIRLDLETDH [R5I],0.112
PPVKRQLDLETDH [R6Q],0.243
PPVKRRLDLETCH [D12C],0.881
PPVKRKLDLETDH [R6K],-0.0497
PPVKRRLDLGTDH [E10G],0.863
PPLKRRLDLETDH [V3L],0.384
PHVKRRLDLETDH [P2H],0.151
PPVKRRLNLETDH [D8N],1.13
PGVKRRLDLETDH [P2G],0.435
PPVKRRVDLETDH [L7V],0.101
PPVKRRLDLETEH [D12E],0.355
PPWKRRLDLETDH [V3W],-0.131
PPVKRRLDLESDH [T11S],0.673
PPVKRRRDLETDH [L7R],-0.278
PPVKLRLDLETDH [R5L],0.601
PPVKRRDDLETDH [L7D],0.522
PCVKRRLDLETDH [P2C],0.213
PPVKRRLDLETTH [D12T],0.652

# Sample 2 — method: RNA Bind-n-Seq; form: RNA; medium: in vitro; concentration: 365 nM; reference: no-protein control; reading: higher = stronger binding
# Target: RNA binding protein fox-1 homolog 2, RRM domain, GST-SBP tag (RBFOX2, Homo sapiens, UniProt O43251-10, residues 100-194)
# Setting: natural RNA segment, single round, ends assumed
# Shared flanks, not repeated: GGGAGUUCUACAGUCCGACGAUC … UGGAAUUCUCGGGUGCCAA
# Target sequence (chain): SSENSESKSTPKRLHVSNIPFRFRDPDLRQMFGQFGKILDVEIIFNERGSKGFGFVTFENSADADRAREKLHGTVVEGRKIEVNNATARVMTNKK
Oligonucleotide,RBNS enrichment (R)
GUGGUACCAGCUGUGACUUUUCUAUUUCUCCUAGUUUUAGGUUGUUCAUGAAACUAGAAAUGUCAUCCUGCUUGAUUUUUCAUCAGCCAAGUUAAACCCCUGCUUUCUGU,0.341
UAGGCAUCAUUUUGAGAAUGCUGACACUUUUUCAGGGCUGUGAUUGAGUGAGGGCAUGGGUAAAAAUAUUUCUUUAAAAGAAGGAUGAACAAUUAUAUUUAUAUUUCAGG,0.989
GGACCCAUAAGGCACAUUAGCGUUGGGGGUCUCUUUUCAGCAGCCUCACAGACAUUCCCGUCCUUUCUGGUUGGUGUUGACUGUGUUUCAGCAUCACUCUACCCUCCCAU,0.319
AGUGGUGGCGGUCACGCUAACACGUGUGAAAGGCCUUUGGCAUUUUUUAAAAAGUGCAAUCAAUAAAGCAGAGUUCUGUCAAGAAUGAGUAAGUUAACAGCCAGAGACAG,0.173
CCCAAAUCUUAAUUUUUCUCUUUUUUUUCUUUGGCUUUGGGAACGGCAUAAUUUUACACCAUUUUACCAAACAUACUGAGAACGAAAACUUCAAGGAUGAUGUUAGAAAA,0.79
CACAAAUCUGUCUUUCAUACCACUCUAUCUGCCAUUCAUUCUUGUUAAAUGAGGCAUUGUUUUCUUUAUUUAAGAUUGAGUUAUGACUUUAAAUGUUUAUGAGCUAGUUU,0.328
ACCUAUUGCAUUCUUAGGCUACUGUGAGGUCUAUGUUUCUUGUACCUGAAAUUGUCCUUUGGACUCCUAGACCCUUCUUCCCCGAUGUGUUUUGUAUGUGGUUAUAAAAU,0.982
CCUGCCCUUGGAGGGCAUGUAGCAGUGUCUGUCCUGCCAGUCCCAAGGCCCUGUGGGAGGAGACUGGCCUGCAUCUCUCUAAGACUUAGUCUGACGCCACGCGCAUCUCU,0.688
UUAGGUUUUUGUUGUGUUUUUGGUUAUGCUGUCCCCCUUCUCCUUGGGGAGAUAUUUGGGAGCAAACUUAUUUAGAUUUAGAGUAAACUUUUCAUUAUAGAGCAAGUAAA,1.03
AUCAAAUAUUUAUGUGUAAAAUGUAUGUUUUACCUCCUUAAAAUGCCUAAAAGUUAGUUAAUAGUUACUUUGGUUUAACCUAUACACAAUGAUUAAGUGCAUUUAAUAUU,0.442
UGUAUUUUAUUUUGAAAUAAACAUCAUUGCCUAAUUGCUCUACCCUAAAAUAGAAUCAUUGCUUUUUGUGUUUCUCAUCCCAACCUUGAAGUUGUCAUGUCAUCCUUUUC,0.922
GCAGGUCAGGUUAAUGGAAGAACGAGUCUGGUGGUAUAGCGUGGUUUGAGAGAUGUCUUUCAGUUUUCUUUUCCUGCAUCAUACCUGGAAUGCAUGCAGCCUGCUGUUGG,25.5

# Sample 3 — method: protein binding microarray; form: double-stranded DNA, one strand shown; medium: in vitro; concentration: not given; reference: not given; reading: higher = stronger binding
# Target: Histone acetyltransferase KAT6A, winged helix 1, GST fusion (KAT6A, Homo sapiens, UniProt Q92794, residues 1-85)
# Setting: 8-mer, flanks averaged, mean of 2 arrays, mostly near background
# Target sequence (chain): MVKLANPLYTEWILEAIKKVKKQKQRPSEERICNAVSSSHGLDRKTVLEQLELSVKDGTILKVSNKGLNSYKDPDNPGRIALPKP
Oligonucleotide,E-score
ATTAATTG,-0.00301
ATTGATTG,-0.212
ATGCCCGC,0.379
AGTTTACA,-0.192
AGCGCGCC,0.455
CACCTGGA,-0.348
CATTAGAC,-0.00136
ATTTCAAG,-0.182
CTACTTGA,-0.238
ATCAGGGC,-0.0536
GATAAGGA,-0.0654
CAGCGATG,-0.0179
CAGGTCCG,0.0878
AATCTAAG,-0.141
GAGACGGC,0.303
ATGCCCAT,-0.161
ATCCGAGA,-0.0326

# Sample 4 — method: universal PBM; form: double-stranded DNA, one strand shown; medium: in vitro; concentration: not given; reading: higher = stronger binding
# Target: Sal-like protein 4, full length isoform B (SALL4, Homo sapiens, UniProt Q9UJQ4-2, residues 1-616)
# Setting: 8-mer, flanks averaged, mean of replicates
# Residues (chain): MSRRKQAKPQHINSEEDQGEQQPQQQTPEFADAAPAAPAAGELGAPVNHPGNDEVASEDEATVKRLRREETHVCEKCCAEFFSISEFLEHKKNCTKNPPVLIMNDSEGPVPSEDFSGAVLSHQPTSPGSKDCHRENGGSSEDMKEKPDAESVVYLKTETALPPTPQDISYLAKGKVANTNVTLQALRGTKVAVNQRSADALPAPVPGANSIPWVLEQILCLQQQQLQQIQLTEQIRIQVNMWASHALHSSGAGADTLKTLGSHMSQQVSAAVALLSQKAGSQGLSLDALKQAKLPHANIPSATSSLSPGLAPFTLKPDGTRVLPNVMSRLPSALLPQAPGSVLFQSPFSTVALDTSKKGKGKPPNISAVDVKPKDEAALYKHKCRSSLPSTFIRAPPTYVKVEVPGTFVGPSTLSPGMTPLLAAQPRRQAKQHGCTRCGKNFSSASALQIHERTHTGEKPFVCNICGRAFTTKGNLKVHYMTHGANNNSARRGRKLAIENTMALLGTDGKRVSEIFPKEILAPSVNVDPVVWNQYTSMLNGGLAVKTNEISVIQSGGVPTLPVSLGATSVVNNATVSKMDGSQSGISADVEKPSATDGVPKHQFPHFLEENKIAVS
Oligonucleotide,E-score
AACGAATT,0.164
CGGCGCCG,-0.299
ACAAAAAT,0.365
AGTCCACC,-0.251
ACACATGG,0.0406
CGAGACAG,-0.191
AACATAAC,0.311
CTGCAATC,0.0112
CTATACTC,0.0484
ATCGGTAA,0.122
GAAACTAC,0.114
CCATCGCC,-0.24
AGGAAAGA,0.0872
CGATCTCA,-0.0796
ACTCTGCT,-0.204
AAGAACAT,0.234
ATCGTACA,0.258

# Sample 5 — method: RNA Bind-n-Seq; form: RNA; medium: in vitro; concentration: 1 µM; setting: whole 134-nt RNA, ends assumed; added: 150 mM KCl; reference: input library; reading: higher = stronger binding
# Target: Ras GTPase-activating protein-binding protein 1, C-terminal RGG region (G3BP1, Homo sapiens, UniProt Q13283)
# Chain of UniProt Q13283 (whole entry, looked up): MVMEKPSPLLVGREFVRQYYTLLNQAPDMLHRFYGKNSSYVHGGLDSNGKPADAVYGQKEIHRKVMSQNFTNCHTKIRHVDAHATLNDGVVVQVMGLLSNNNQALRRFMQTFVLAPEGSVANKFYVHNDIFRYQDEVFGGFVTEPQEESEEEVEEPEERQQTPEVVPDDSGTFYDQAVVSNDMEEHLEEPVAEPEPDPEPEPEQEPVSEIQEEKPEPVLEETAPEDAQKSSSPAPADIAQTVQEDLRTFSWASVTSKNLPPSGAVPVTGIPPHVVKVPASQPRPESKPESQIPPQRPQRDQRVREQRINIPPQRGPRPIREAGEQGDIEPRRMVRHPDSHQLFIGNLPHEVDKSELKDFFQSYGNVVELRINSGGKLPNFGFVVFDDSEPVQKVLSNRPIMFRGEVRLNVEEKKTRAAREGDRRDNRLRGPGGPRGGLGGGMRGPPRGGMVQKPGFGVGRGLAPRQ
# Shared flanks, not repeated: GGGAGUUCUACAGUCCGACGAUC … UGGAAUUCUCGGGUGUCAAGG
Oligonucleotide,log2 enrichment
CUCAAGUCCUGUGCUACACAUCGUAUGUACCGAAUCGGCCGGCCGGGGCCGGGGAAAGUAUUAUGUUACGCCGUUCGGAUCUGCACUUCC,-1.38
UGGCCCUGGUGGCAUGCGGGGAGGAAGAGGUGGCCUCAUGGUUCGUGGUGGUCCCGGUGGAAUGUUCAGAGGUGGCCGUGGUGGAGACAG,1.76
ACCAUGCAGGUGGGCAUCUUUGGGAAGUGGGGCAAGGGGGGGCUAGGGAGGGGGGUAACACUUUGGGAACAGGUGGUCCCAGGUCGUUUC,2.35
UGCUGGAGUGGCAGAAGACUUUUGAGGAGAAGCUCACGCCGUUGCUGAGUGUGCGGGAGUCACUCUCAGAGGAAGAGGCCCAGAAGAUGG,-1.53
UCCUGUGCUACACAUCGUAUGUACCGAAUCGGGUUUUUGGGGUUUUUGGGUUUUUGGGGAAAGUAUUAUGUUACGCCGUUCGGAUCUGCA,0.44
CAAGUCCUGUGCUACACAUCGUAUGUACCGAAUCGGAAAGGGAAAGGGGAAAGGGAAAGUAUUAUGUUACGCCGUUCGGAUCUGCACUUC,-0.97
GCAGGAAGUAAAAACAAAUGGAAAUGCUUCGGAUAGUGGCAGGGGUGGGGGUUGCUAAGGAAAUGGUGGGAUGGGAGUGGGUAAAGAGUU,2.03
CCUGUGCUACACAUCGUAUGUACCGAAUCGGGAAAAAAAGGGGAAAAAAAGGAAAAAAAGGAAAGUAUUAUGUUACGCCGUUCGGAUCUG,-1.64
UUCGACGGCGCCGGGCGAGUGGCUGUUGAGCGGCGCCGCGGGAGUUCCGCAGGUUUCCCGUGUUCGCAGCGGAGCCGGAGGCCAGCUGAA,-3.3
CCUCAAGUCCUGUGCUACACAUCGUAUGUACCGAAUCGGGAGGGAGGGGAGGAAAGUAUUAUGUUACGCCGUUCGGAUCUGCACUUCCAG,0.687
UCAAGUCCUGUGCUACACAUCGUAUGUACCGAAUCGGGGAAGGGAAGGGGAAGGAAAGUAUUAUGUUACGCCGUUCGGAUCUGCACUUCC,-0.546
CCUGUGCUACACAUCGUAUGUACCGAAUCGGGGAAAAAGGGGUUUGGGGUUUUUUUGGGGAAAGUAUUAUGUUACGCCGUUCGGAUCUGC,1.24
UCCUCAAGUCCUGUGCUACACAUCGUAUGUACCGAAUCGGGAGGAGGGGAGGAAAGUAUUAUGUUACGCCGUUCGGAUCUGCACUUCCAG,-0.683
ACCAUGCAGGUGGGCAUCUUUGGGAAGUGGGGCAAGGGGGGGAUAGGGAGGGGGGUAACACUUUGGGAACAGGUGAAACCAGGUCGUUUC,-0.532

# Excerpt of the above (sample 2):
Oligonucleotide,RBNS enrichment (R)
UAGGCAUCAUUUUGAGAAUGCUGACACUUUUUCAGGGCUGUGAUUGAGUGAGGGCAUGGGUAAAAAUAUUUCUUUAAAAGAAGGAUGAACAAUUAUAUUUAUAUUUCAGG,0.989
GGACCCAUAAGGCACAUUAGCGUUGGGGGUCUCUUUUCAGCAGCCUCACAGACAUUCCCGUCCUUUCUGGUUGGUGUUGACUGUGUUUCAGCAUCACUCUACCCUCCCAU,0.319
AGUGGUGGCGGUCACGCUAACACGUGUGAAAGGCCUUUGGCAUUUUUUAAAAAGUGCAAUCAAUAAAGCAGAGUUCUGUCAAGAAUGAGUAAGUUAACAGCCAGAGACAG,0.173
CCCAAAUCUUAAUUUUUCUCUUUUUUUUCUUUGGCUUUGGGAACGGCAUAAUUUUACACCAUUUUACCAAACAUACUGAGAACGAAAACUUCAAGGAUGAUGUUAGAAAA,0.79
CACAAAUCUGUCUUUCAUACCACUCUAUCUGCCAUUCAUUCUUGUUAAAUGAGGCAUUGUUUUCUUUAUUUAAGAUUGAGUUAUGACUUUAAAUGUUUAUGAGCUAGUUU,0.328
ACCUAUUGCAUUCUUAGGCUACUGUGAGGUCUAUGUUUCUUGUACCUGAAAUUGUCCUUUGGACUCCUAGACCCUUCUUCCCCGAUGUGUUUUGUAUGUGGUUAUAAAAU,0.982
CCUGCCCUUGGAGGGCAUGUAGCAGUGUCUGUCCUGCCAGUCCCAAGGCCCUGUGGGAGGAGACUGGCCUGCAUCUCUCUAAGACUUAGUCUGACGCCACGCGCAUCUCU,0.688
